Results pooled from the literature.
Each numbered part is a random draw from the data of one study; scales do not carry over between parts. “And” joins repeats or separate records; there may be more than shown.
Sequence of UniProt Q16512 (whole entry, looked up): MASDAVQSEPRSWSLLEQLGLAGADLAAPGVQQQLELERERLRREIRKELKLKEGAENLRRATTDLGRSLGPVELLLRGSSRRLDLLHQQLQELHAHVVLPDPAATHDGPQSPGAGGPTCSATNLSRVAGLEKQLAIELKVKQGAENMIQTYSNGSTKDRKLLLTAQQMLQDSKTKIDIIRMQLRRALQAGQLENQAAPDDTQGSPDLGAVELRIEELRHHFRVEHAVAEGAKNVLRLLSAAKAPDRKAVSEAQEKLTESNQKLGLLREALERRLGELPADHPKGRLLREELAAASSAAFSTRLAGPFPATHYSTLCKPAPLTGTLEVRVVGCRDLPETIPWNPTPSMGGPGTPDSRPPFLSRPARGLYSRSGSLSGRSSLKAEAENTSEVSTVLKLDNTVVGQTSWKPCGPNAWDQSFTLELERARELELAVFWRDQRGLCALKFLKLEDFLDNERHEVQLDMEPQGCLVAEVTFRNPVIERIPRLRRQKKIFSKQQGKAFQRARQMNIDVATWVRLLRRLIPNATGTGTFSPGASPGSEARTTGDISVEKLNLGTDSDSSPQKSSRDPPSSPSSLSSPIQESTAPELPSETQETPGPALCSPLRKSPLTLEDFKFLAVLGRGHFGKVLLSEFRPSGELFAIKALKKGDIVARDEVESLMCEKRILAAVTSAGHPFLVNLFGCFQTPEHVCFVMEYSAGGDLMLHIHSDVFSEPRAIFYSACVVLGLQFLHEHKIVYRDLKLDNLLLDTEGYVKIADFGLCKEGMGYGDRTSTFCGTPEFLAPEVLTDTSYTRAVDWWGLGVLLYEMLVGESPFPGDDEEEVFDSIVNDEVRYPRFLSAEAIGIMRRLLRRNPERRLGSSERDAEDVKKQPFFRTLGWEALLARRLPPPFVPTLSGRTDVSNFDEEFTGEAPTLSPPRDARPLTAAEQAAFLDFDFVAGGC
Sequence of UniProt Q86Z02 (whole entry, looked up): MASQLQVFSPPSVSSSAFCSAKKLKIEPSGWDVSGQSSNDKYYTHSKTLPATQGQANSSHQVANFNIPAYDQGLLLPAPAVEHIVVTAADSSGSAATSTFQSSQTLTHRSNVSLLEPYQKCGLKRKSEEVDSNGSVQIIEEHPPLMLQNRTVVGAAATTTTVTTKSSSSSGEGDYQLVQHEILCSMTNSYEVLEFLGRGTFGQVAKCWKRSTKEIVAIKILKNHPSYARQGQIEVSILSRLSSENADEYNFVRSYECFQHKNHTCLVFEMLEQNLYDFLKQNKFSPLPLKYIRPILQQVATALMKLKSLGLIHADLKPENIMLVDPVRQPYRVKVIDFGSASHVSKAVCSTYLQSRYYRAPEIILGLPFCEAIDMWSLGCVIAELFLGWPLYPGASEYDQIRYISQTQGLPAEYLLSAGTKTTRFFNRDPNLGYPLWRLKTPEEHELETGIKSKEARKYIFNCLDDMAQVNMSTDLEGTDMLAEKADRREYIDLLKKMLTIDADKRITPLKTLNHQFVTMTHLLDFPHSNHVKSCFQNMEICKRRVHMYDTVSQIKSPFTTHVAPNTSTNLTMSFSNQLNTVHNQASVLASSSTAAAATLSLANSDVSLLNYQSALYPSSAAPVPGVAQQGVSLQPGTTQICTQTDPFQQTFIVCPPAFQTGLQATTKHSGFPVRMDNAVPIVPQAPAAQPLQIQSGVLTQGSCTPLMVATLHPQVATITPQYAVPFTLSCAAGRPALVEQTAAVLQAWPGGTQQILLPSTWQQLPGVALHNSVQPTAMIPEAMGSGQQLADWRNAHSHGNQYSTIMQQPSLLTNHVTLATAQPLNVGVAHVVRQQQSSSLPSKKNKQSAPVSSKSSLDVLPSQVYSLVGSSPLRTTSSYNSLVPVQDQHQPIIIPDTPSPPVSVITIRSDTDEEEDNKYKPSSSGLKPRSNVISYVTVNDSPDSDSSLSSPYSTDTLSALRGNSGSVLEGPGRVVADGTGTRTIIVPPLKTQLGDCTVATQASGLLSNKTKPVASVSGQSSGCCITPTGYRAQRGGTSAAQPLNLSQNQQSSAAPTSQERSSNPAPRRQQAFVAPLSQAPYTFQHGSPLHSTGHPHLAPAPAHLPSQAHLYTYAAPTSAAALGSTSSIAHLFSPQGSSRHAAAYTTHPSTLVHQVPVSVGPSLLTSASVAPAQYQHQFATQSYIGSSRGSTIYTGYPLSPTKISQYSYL
Sequence of UniProt Q00526 (whole entry, looked up): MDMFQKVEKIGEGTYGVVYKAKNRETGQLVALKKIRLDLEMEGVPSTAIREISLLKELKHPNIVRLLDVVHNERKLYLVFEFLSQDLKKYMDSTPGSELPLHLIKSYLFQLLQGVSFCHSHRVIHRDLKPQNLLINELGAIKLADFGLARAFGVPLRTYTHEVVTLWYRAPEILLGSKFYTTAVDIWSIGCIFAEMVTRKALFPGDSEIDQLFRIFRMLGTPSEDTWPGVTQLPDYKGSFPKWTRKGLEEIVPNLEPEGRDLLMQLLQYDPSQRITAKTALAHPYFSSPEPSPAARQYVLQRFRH
Sequence of UniProt Q8NG66 (whole entry, looked up): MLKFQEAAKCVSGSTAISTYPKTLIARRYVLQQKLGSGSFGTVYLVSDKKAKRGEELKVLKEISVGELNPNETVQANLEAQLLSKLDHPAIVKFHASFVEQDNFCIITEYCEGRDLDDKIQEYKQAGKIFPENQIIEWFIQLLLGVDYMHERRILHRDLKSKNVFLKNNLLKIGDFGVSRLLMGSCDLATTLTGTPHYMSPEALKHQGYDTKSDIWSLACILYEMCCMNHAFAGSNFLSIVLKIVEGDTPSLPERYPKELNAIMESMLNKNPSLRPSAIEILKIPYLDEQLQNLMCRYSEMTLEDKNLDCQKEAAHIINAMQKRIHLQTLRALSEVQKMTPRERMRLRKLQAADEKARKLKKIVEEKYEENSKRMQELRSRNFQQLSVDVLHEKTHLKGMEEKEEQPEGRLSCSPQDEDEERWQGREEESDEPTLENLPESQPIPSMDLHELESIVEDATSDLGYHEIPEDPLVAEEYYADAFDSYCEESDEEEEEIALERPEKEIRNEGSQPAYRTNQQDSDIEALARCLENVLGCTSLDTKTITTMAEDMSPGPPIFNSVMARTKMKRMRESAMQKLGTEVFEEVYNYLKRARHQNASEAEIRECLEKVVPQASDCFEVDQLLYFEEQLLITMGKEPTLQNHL
Sequence of UniProt Q08881 (whole entry, looked up): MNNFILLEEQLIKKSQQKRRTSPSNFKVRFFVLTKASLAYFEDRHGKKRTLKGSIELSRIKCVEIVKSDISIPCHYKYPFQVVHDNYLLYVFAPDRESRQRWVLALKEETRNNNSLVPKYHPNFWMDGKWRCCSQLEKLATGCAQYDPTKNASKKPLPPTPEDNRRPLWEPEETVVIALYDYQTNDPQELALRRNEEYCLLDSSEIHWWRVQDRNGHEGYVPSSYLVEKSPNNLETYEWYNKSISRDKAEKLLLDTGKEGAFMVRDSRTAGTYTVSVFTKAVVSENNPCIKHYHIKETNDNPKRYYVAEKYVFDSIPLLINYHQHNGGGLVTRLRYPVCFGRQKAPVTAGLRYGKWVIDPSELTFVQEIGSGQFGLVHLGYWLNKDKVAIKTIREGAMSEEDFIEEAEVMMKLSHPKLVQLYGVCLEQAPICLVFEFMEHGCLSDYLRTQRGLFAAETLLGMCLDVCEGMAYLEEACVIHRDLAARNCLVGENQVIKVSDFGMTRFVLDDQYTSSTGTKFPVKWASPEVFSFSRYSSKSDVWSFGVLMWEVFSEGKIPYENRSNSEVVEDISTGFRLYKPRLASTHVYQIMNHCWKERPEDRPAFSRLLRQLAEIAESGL
Sequence of UniProt P42679 (whole entry, looked up): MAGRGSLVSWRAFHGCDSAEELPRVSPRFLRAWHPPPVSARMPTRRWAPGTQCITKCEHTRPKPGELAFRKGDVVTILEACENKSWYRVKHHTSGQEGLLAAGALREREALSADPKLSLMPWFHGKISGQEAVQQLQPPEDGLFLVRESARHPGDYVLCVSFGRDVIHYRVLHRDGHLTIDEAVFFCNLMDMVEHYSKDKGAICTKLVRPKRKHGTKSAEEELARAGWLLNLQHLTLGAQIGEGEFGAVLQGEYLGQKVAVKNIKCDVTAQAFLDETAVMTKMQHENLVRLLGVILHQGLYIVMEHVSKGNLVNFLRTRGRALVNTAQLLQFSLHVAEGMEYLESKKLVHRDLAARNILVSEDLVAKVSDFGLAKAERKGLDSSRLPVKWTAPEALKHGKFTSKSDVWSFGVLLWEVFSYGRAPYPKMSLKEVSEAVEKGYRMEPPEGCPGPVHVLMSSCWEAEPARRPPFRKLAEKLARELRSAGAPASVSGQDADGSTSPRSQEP
Sequence of UniProt O00506 (whole entry, looked up): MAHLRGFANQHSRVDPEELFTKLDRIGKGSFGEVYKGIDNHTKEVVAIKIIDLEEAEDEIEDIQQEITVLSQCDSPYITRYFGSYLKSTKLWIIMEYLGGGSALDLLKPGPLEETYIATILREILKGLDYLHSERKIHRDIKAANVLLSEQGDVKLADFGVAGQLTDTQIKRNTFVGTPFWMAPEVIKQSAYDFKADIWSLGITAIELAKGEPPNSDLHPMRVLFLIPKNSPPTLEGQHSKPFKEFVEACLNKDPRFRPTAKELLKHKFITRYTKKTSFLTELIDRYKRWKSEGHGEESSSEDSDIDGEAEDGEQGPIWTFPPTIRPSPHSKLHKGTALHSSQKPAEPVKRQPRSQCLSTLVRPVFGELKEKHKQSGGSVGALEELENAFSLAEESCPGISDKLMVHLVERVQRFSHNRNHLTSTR
Sequence of UniProt P51817 (whole entry, looked up): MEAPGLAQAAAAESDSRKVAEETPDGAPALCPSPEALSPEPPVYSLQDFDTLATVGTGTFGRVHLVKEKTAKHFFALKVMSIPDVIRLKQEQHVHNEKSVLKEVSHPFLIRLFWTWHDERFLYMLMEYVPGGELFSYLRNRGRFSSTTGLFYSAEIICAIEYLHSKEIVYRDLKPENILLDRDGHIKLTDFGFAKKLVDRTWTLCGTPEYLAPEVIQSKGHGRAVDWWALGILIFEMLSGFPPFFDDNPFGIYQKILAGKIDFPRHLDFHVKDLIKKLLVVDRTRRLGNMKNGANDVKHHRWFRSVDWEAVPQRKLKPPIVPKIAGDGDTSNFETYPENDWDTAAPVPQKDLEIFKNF

Block 1
Cell line: normal-adjacent epithelial organoid
Read-out: cell viability
Technique: CellTiter-Glo
Species: human
Matrix: patient-derived organoid
Tested at: 1 µM
Reference: DMSO
Endpoint: viability
O=C1CCc2cc(Nc3cc(OC4CCOCC4)c([N+](=O)[O-])cc3Cl)ccc2N1: 96.8%
CN(C)[C@H]1CCN(c2cc(-c3ccccc3)nc3ccnn23)C1: 122%
Cc1cc(-n2nc(Cc3cc(F)cc(C(F)(F)F)c3)nc2C)ccc1C(N)=O: 84%
CN(C)C(=O)Cn1cc(-c2ccc(-c3cncc4ccccc34)cc2)cn1: 83.7%
COc1cc(-c2cn(C3CCc4c(F)cccc4N(CC(F)(F)F)C3=O)nn2)ccc1-n1cnc(C)c1 (stereo not shown): 108% and 112%
CNC(=O)c1cc(C(=O)N[C@H]2[C@@H]3COC[C@@H]32)cc2c1O[C@@H](CF)[C@@H]2c1ccccc1: 111%
CC(C)(O)c1cncc(-c2nc3ccc(F)cc3n2C2CC2)c1: 126%
CC(=O)N1CCC(c2ccc(C(=O)NC3=NCCN3)cc2C(F)(F)F)CC1: 93% and 94.4%
O=C(NNS(=O)(=O)c1ccccc1F)c1cc(F)cc(-c2ccccn2)c1: 110%
COc1cc(-c2cn(C3CCc4ccccc4N(CC(F)(F)F)C3=O)nn2)ccc1-n1ccc(C)n1 (stereo not shown): 98.1% and 99.3%
CNC(=O)c1ccccc1Nc1cc(Nc2ccc(N3CCOCC3)cc2OC)ncc1C(F)(F)F: 22.5%
Cn1cncc1[C@@](O)(COc1ccc(C#N)cc1-c1ccc(OC(F)(F)F)cc1)c1ccc(C#N)cc1: 77.3% and 81%
CN1CCN(C(=O)C(C)(C)c2ccc(C(=O)Nc3cn4cc(-c5cc(C(C)(C)C)cc(C(C)(C)C)c5)ccc4n3)cc2)CC1: 86.8%
CCC(=O)N[C@@H]1CC[C@H](C(=O)N(C)c2ccc(-c3nc4ccccc4o3)cc2)C1: 94.8% and 108%
CNc1nc(-c2ccc3c(N)n[nH]c3c2)cc(N2C[C@@H](C(=O)NC3CCCCC3)CC[C@H]2C)n1: 86%
Cc1noc([C@H]2C[C@@H](c3ccc(C(F)(F)F)cc3)CN(C(=O)N3CCS(=O)(=O)C3)C2)n1: 104% and 99.2%

Block 2
Cell line: mouse MPNST tumor cells
Technique: high-content nuclear imaging
Measured: cell number
Tested at: 10 µM
Time: 12 h
Notes: mean of 2 replicates
Reference: plate mean
Reading: higher = more cells
Endpoint: nuclei count
Clc1ccc(C(Cn2ccnc2)OCc2csc3c(Cl)cccc23)c(Cl)c1 (stereo not shown): 1.55 z-score
OCCn1cc(-c2ccc3c(c2)CC/C3=N\O)c(-c2ccncc2)n1: 3.77 z-score
CC[N+](C)(CC)CCC[n+]1c(-c2ccccc2)c2cc(N)ccc2c2ccc(N)cc21: -0.332 z-score
CC(c1cc2ccccc2s1)N(O)C(N)=O (stereo not shown): 1.92 z-score and 1.55 z-score and 1.9 z-score
COc1ccc(-c2ccc(=N)n(CCCC(=O)O)n2)cc1: -0.158 z-score
CC12CCC(=O)C=C1CCC1C2C(O)CC2(C)C1CCC2(O)C(=O)CO (stereo not shown): 1.75 z-score
CNCCC=C1c2ccccc2CCc2ccccc21: -6.94 z-score
C[C@H](NC(=O)CCc1ccc(F)c(F)c1)c1cncc(N2CCN(c3ccccn3)CC2)n1: 0.33 z-score
CCCc1cc(C)n(C)c(=O)c1CN(C)C(=O)c1cc(-c2ccc(N3CCN(C(C)C)CC3)nc2)cc2c1cnn2C(C)C: 2.83 z-score
CC[N+](CC)(CC)CCOc1ccc(/C=C/c2ccccc2)cc1: -1.06 z-score
CC(C)Oc1ccc(-c2c[nH]cc2CN(C)CCN)cc1: 3.7 z-score and 2.39 z-score
Cc1cc(NC(=O)C(c2ccccc2)N2CCCc3ccccc32)no1 (stereo not shown): -0.146 z-score

Block 3
SMILES: O=C1NC(=O)/C(=C/c2ccc3nccnc3c2)S1
Read-out: enzyme activity
Mode: inhibitor
Tested at: 0.5 µM
Reference: control
Endpoint: remaining activity
Tyrosine-protein kinase Fer (FER, Homo sapiens, UniProt P16591): 96.2%
Serine/threonine-protein kinase TAO3 (TAOK3, Homo sapiens, UniProt Q9H2K8): 93.1%
Tyrosine-protein kinase Fyn (FYN, Homo sapiens, UniProt P06241): 95.3%
Cyclin-dependent kinase 3, with cyclin E (CDK3, Homo sapiens, UniProt Q00526): 91.7%
Vascular endothelial growth factor receptor 3 (FLT4, Homo sapiens, UniProt P35916): 108%
Serine/threonine-protein kinase MRCK alpha (CDC42BPA, Homo sapiens, UniProt Q5VT25): 93.1%
ALK tyrosine kinase receptor (ALK, Homo sapiens, UniProt Q9UM73): 93.3%
Serine/threonine-protein kinase NLK (NLK, Homo sapiens, UniProt Q9UBE8): 92.4%
Proto-oncogene tyrosine-protein kinase Src (SRC, Homo sapiens, UniProt P12931): 102%
Insulin receptor (INSR, Homo sapiens, UniProt P06213): 108%
MAP/microtubule affinity-regulating kinase 3 (MARK3, Homo sapiens, UniProt P27448): 94.3%
Serine/threonine-protein kinase Nek11 (NEK11, Homo sapiens, UniProt Q8NG66): 111%
Serine/threonine-protein kinase N1 (PKN1, Homo sapiens, UniProt Q16512): 101%
Tyrosine-protein kinase Fgr (FGR, Homo sapiens, UniProt P09769): 96.8%
PAS domain-containing serine/threonine-protein kinase (PASK, Homo sapiens, UniProt Q96RG2): 87.7%
Homeodomain-interacting protein kinase 1 (HIPK1, Homo sapiens, UniProt Q86Z02): 104%
LIM domain kinase 1 (LIMK1, Homo sapiens, UniProt P53667): 87.4%
Megakaryocyte-associated tyrosine-protein kinase (MATK, Homo sapiens, UniProt P42679): 90.5%
Serine/threonine-protein kinase 25 (STK25, Homo sapiens, UniProt O00506): 99.3%
RAC-alpha serine/threonine-protein kinase (AKT1, Homo sapiens, UniProt P31749): 98.3%
cAMP-dependent protein kinase catalytic subunit PRKX (PRKX, Homo sapiens, UniProt P51817): 89.2%
Tyrosine-protein kinase ITK/TSK (ITK, Homo sapiens, UniProt Q08881): 91.2%

Block 4
Cell line: A-375
Tested at: 100 µM
Time: 18 h
Endpoint: viability
N[C@H](C(=O)O)[C@H](O)c1ccc(O)c(O)c1: 93.9%
CCN[C@@H]1C[C@H](N)[C@@H](O[C@H]2OC(CN)=CC[C@H]2N)[C@H](O)[C@H]1O[C@H]1OC[C@](C)(O)[C@H](NC)[C@H]1O: 91.7%
Nc1nc(CC(=O)Nc2ccc(CCNC[C@H](O)c3ccccc3)cc2)cs1: 98.7%
C[C@@H](NCCc1ccc(O)cc1)[C@@H](O)c1ccc(O)cc1 (racemic): 95.2%
CCCCNc1cc(C(=O)O)cc(S(N)(=O)=O)c1Oc1ccccc1: 109%
O=C(O)CCCC[C@@H]1CCSS1: 106%
CN[C@@H]1[C@@H](O[C@H]2O[C@H](CO)[C@@H](N)[C@H](O)[C@H]2O)O[C@H]2C[C@@H](N)[C@@H](O[C@H]3[C@H](O)[C@@H](O)[C@H](N)C[C@@H]3N)O[C@@H]2[C@@H]1O: 106%
COc1cc(C(=O)NS(=O)(=O)c2ccccc2C)ccc1Cc1cn(C)c2ccc(NC(=O)OC3CCCC3)cc12: 45.8%
CN(N=O)C(=O)N[C@@H](C=O)[C@@H](O)[C@H](O)[C@H](O)CO: 105%
Cc1nc2c([nH]1)-c1ccccc1N(C(=O)c1ccc(NC(=O)c3ccccc3-c3ccccc3)cc1)CC2: 70.3%
CO[C@@]1(NC(=O)Cc2cccs2)C(=O)N2C(C(=O)O)=C(COC(N)=O)CS[C@@H]21: 90.2%
NCCNc1ccc(NCCN)c2c1C(=O)c1ccncc1C2=O: 12.2%
C[C@@H]1O[C@@H](O[C@H]2[C@H](Oc3cc(O)c4c(c3)O[C@H](c3ccc(O)cc3)CC4=O)O[C@H](CO)[C@@H](O)[C@@H]2O)[C@H](O)[C@H](O)[C@H]1O: 89.4%
CCn1cc(C(=O)O)c(=O)c2cc(F)c(N3CCNCC3)nc21: 104% and 92.5%

Some of these lines once more (block 3):
Vascular endothelial growth factor receptor 3 (FLT4, Homo sapiens, UniProt P35916): 108%
Serine/threonine-protein kinase MRCK alpha (CDC42BPA, Homo sapiens, UniProt Q5VT25): 93.1%
ALK tyrosine kinase receptor (ALK, Homo sapiens, UniProt Q9UM73): 93.3%
Serine/threonine-protein kinase NLK (NLK, Homo sapiens, UniProt Q9UBE8): 92.4%
Proto-oncogene tyrosine-protein kinase Src (SRC, Homo sapiens, UniProt P12931): 102%
Insulin receptor (INSR, Homo sapiens, UniProt P06213): 108%
MAP/microtubule affinity-regulating kinase 3 (MARK3, Homo sapiens, UniProt P27448): 94.3%
Serine/threonine-protein kinase Nek11 (NEK11, Homo sapiens, UniProt Q8NG66): 111%
Serine/threonine-protein kinase N1 (PKN1, Homo sapiens, UniProt Q16512): 101%
